# Assay results gathered from unrelated publications.
# Protocols differ between the studies behind these lines. “And” joins repeats or separate records; there may be more than shown. ± gives the spread as reported.
Structure (SMILES),cell line,assay,conditions,how to read,endpoint,result
CCOC(=O)C1(Cc2ccccc2)Oc2cc(F)ccc2N(Cc2ccccc2)C1=O (stereo not shown),HEK293T,"cytotoxicity, CCK-8","3.13 µM, 72 h",,inhibition,0.15 ± 0.3%
COc1ccccc1-c1ccncc1C(=O)Nc1nnc(OCc2ccc(Cl)cc2)s1,RPE-1 TP53-/- BRCA1-/-,,"0.125 µM, average of 2 runs",reference: untreated,colony survival,55.7%
CC(C)[C@H](NC(=O)[C@H](CCCNC(=N)N)NC(=O)[C@@H]1CCCN1C(=O)[C@@H](NC(=O)[C@H](C)NC(=O)[C@H](Cc1ccc(O)cc1)NC(=O)[C@H](CCC(N)=O)NC(=O)[C@H](CCCCN)NC(=O)[C@H](CCCNC(=N)N)NC(=O)[C@@H]1CCCN1C(=O)[C@H](CCC(=O)O)NC(=O)[C@@H](NC(=O)[C@H](C)N)[C@@H](C)O)[C@@H](C)O)C(=O)N[C@@H](Cc1ccccc1)C(=O)N[C@@H](Cc1c[nH]c2ccccc12)C(=O)N[C@H](C(=O)N[C@@H](CC(=O)O)C(=O)N[C@@H](C)C(=O)N1CCC[C@H]1C(=O)NCC(=O)NCCOCCOCCOCCOCCOCCOCCOCCOCCOCCOCCOCCOCCC(=O)N[C@@H](CS)C(N)=O)[C@@H](C)O,HCC515,phage binding,,reference: targeting over control phage,selectivity ratio,2.2 ± 0.68
O=C(C[Se]C(=O)c1ccccc1)Nc1cccc(C(F)(F)F)c1,NCI60 breast subpanel mean,cell growth,,,TGI,8.5 µM
Cc1cccc(-c2cccc(C)n2)n1.Cc1cccc(-c2cccc(C)n2)n1.F[P-](F)(F)(F)(F)F.F[P-](F)(F)(F)(F)F.[Ru+2].c1ccc2c(-c3nc4c5cccnc5c5ncccc5c4[nH]3)cccc2c1,SK-MEL-28,,"normoxia, together with: blue light 453 nm, 100 J/cm2",reference: dark over light EC50,phototoxicity index,22
CC(=O)NCSC[C@H](NC(=O)[C@@H]1CCCN1C(=O)[C@H](C)NC(=O)[C@@H](NC(=O)CNC(=O)[C@@H](NC(=O)[C@H](Cc1c[nH]c2ccccc12)NC(=O)[C@H](C)NC(=O)CNC(=O)[C@H](CO)NC(=O)[C@H](C)NC(=O)[C@@H]1CCCN1C(=O)[C@H](Cc1c[nH]c2ccccc12)NC(=O)[C@H](C)NC(=O)[C@H](C)NC(=O)[C@@H](N)Cc1ccc(O)cc1)[C@@H](C)O)[C@@H](C)O)C(=O)N[C@@H](CO)C(=O)N[C@@H](C)C(=O)NCC(=O)N[C@H](C(=O)NCCOCCOCCOCCOCCOCCOCCOCCOCCOCCOCCOCCOCCC(=O)N[C@@H](CS)C(N)=O)[C@@H](C)O,HCC15,phage binding,,reference: targeting over control phage,selectivity ratio,16 ± 1.4
C#CCN1C(=O)C(CC#C)(C(=O)OCC)Oc2ccccc21 (stereo not shown),HEK293T,"cytotoxicity, CCK-8","0.78 µM, 72 h",,inhibition,0%
NC(=S)N/N=C/c1ccc(OCc2ccccc2)cc1,IMR-32,,"400 µg/mL, 24 h",higher = more activity,catalase activity (OD450),0.067 a.u.
CSCC[C@H](NC(=O)[C@@H](NC(=O)[C@H](CCC(N)=O)NC(=O)[C@H](CO)NC(=O)[C@@H](N)C(C)C)[C@@H](C)O)C(=O)N[C@@H](CCCNC(=N)N)C(=O)N[C@@H](CCC(N)=O)C(=O)N[C@H](C(=O)N[C@@H](C)C(=O)N[C@H](C(=O)N1CCC[C@H]1C(=O)N[C@@H](CC(C)C)C(=O)N[C@@H](CC(C)C)C(=O)N[C@@H](Cc1c[nH]c2ccccc12)C(=O)N[C@@H](Cc1ccccc1)C(=O)N[C@@H](Cc1c[nH]c2ccccc12)C(=O)N[C@H](C(=O)NCC(=O)N[C@@H](CO)C(=O)N[C@@H](CC(C)C)C(=O)NCCOCCOCCOCCOCCOCCOCCOCCOCCOCCOCCOCCOCCC(=O)N[C@@H](CS)C(N)=O)[C@@H](C)O)C(C)C)[C@@H](C)O,H1650 lung adenocarcinoma,"cell binding, phage binding, measured: output/input phage","10 min, 37 °C",reference: control phage,selectivity ratio,0.55 ± 0.14
CC(C)CC(O)(CC(C)C)c1cn(C(=O)N2CCCC2)nn1,mouse T-cells,"SILAC proteomics, measured: Efhd2","1 nM, 6 h, single peptides, unit not given",reference: DMSO,protein level,0.89 and 1.09
CC(C)(C)C(=O)OCOP(=O)(OCOC(=O)C(C)(C)C)C1CCCN(O)C1=O (stereo not shown),SK-MEL-28,,,,TGI,1.14 µM
O=C(C[Se]C(=O)c1cccs1)Nc1cccc(C(F)(F)F)c1,NCI60 NSCLC subpanel,NCI60 five-dose screen,,,GI50,1.62 µM
[Cl-].[Cl-].[Ru+2].c1ccc(-c2ccccn2)nc1.c1ccc(-c2ccccn2)nc1.c1ccc2cc3nc4c5cccnc5c5ncccc5c4nc3cc2c1,SK-MEL-28,,"1% O2, together with: green light 523 nm, 100 J/cm2",reference: dark over light EC50,phototoxicity index,1
COc1ccc(NC(=O)c2ccc3[nH]c(-c4ccc(N(C)C)cc4)nc3c2)cn1,HCT-116,Caspase-Glo,"8 µM, 16 h, unit not given, together with: ISRIB 400 nM pre-incubation",reference: DMSO,caspase-3/7 activity,6.12 and 4.74 and 4.4
O=C(O)c1ccc(-c2nc(-c3ccccc3Cl)c3sccn23)cc1,human CD34+ hematopoietic stem cells,"megakaryocyte differentiation, flow cytometry, measured: CD61","10 µM, day 3, together with: TPO",reference: control,fold change,1.36 fold and 1.53 fold and 1.27 fold and 1.07 fold and 1.18 fold and 1.16 fold and 1.1 fold and 1.12 fold
O=C(C[Se]C(=O)c1ccco1)Nc1cccc(C(F)(F)F)c1,NCI60 NSCLC subpanel,NCI60 five-dose screen,,,GI50,2.55 µM
Cc1cc(Oc2nc(N3CC[C@@H](c4ccncc4)C3)ncc2F)[nH]n1,BT-20,cell growth or viability,,,IC50,56.2 µM
O=C(C[Se]C(=O)c1cc2ccccc2[nH]1)Nc1cccc(C(F)(F)F)c1,NCI60 renal subpanel,"cytotoxicity, inhibitor",five-dose,,CC50,6.16 µM
C=CCN1C(=O)C(CC=C)(C(=O)OCC)Oc2cc(F)ccc21 (stereo not shown),HEK293T,"cytotoxicity, CCK-8","1.56 µM, 72 h",,inhibition,0.06 ± 0.43%
O=C(C[Se]C(=O)c1ccccc1Nc1ccccc1)Nc1cccc(C(F)(F)F)c1,NCI60 renal subpanel,"cytotoxicity, inhibitor",five-dose,,CC50,6.48 µM
CC(C)C[C@H](NC(=O)[C@H](CC(=O)O)NC(=O)CNC(=O)[C@@H](N)CCCNC(=N)N)C(=O)N[C@@H](C)C(=O)N[C@H](C(=O)N[C@@H](CC(C)C)C(=O)N[C@@H](CCCNC(=N)N)C(=O)N[C@@H](CCC(N)=O)C(=O)N[C@@H](CC(C)C)C(=O)N[C@@H](C)C(=O)N[C@@H](CCC(N)=O)C(=O)N[C@@H](CCC(=O)O)C(=O)N[C@@H](CC(=O)O)C(=O)NCC(=O)N[C@H](C(=O)N[C@H](C(=O)NCC(=O)N[C@H](C(=O)N[C@@H](CCCNC(=N)N)C(=O)NCCOCCOCCOCCOCCOCCOCCOCCOCCOCCOCCOCCOCCC(=O)N[C@@H](CS)C(N)=O)C(C)C)C(C)C)C(C)C)[C@@H](C)O,H1666 lung adenocarcinoma,"cell binding, phage binding, measured: output/input phage","10 min, 37 °C",reference: control phage,selectivity ratio,34 ± 10
O=C(C[Se]C(=O)C12CC3CC(CC(C3)C1)C2)Nc1cccc(C(F)(F)F)c1,NCI60 NSCLC subpanel,NCI60 five-dose screen,,,CC50,22.1 µM
O=c1n(CCNCCOS(=O)(=O)c2ccccc2)c(=O)n(S(=O)(=O)c2ccccc2)c(=O)n1S(=O)(=O)c1ccccc1,A549,"cell growth or viability, MTT","25 µg/mL, 48 h",,viability,44%
O=C(C[Se]C(=O)c1ccccc1Nc1cccc(C(F)(F)F)c1)Nc1cccc(C(F)(F)F)c1,NCI60 ovarian subpanel,"cytotoxicity, inhibitor",five-dose,,CC50,8.87 µM
CC[C@H](C)[C@H](NC(=O)[C@H](C)NC(=O)CNC(=O)[C@H](Cc1ccccc1)NC(=O)[C@H](CC(N)=O)NC(=O)[C@H](CC(N)=O)NC(=O)[C@H](CO)NC(=O)[C@H](CO)NC(=O)[C@H](Cc1c[nH]cn1)NC(=O)[C@@H](NC(=O)[C@H](CC(C)C)NC(=O)[C@H](Cc1ccccc1)NC(=O)[C@H](CC(N)=O)NC(=O)[C@H](C)NC(=O)[C@H](CC(C)C)NC(=O)[C@H](CCCNC(=N)N)NC(=O)[C@H](CCC(N)=O)NC(=O)[C@@H](NC(=O)[C@H](C)NC(=O)[C@@H]1CSSC[C@H](NC(=O)[C@@H](N)CCCCN)C(=O)N[C@@H](CC(N)=O)C(=O)N[C@@H]([C@@H](C)O)C(=O)N[C@@H](C)C(=O)N[C@@H]([C@@H](C)O)C(=O)N1)[C@@H](C)O)C(C)C)C(=O)N[C@@H](CC(C)C)C(=O)N[C@@H](CO)C(=O)N[C@@H](CO)C(=O)N[C@H](C(=O)N[C@@H](CC(N)=O)C(=O)N[C@H](C(=O)NCC(=O)N[C@@H](CO)C(=O)N[C@@H](CC(N)=O)C(=O)N[C@H](C(=O)N[C@@H](Cc1ccc(O)cc1)C(N)=O)[C@@H](C)O)C(C)C)[C@@H](C)O,RIN-m5F,"colocalization microscopy, measured: ubiquitin (P4D1)","10 µM, 24 h",,Pearson colocalization coefficient,> 0.6
